Assay results from different studies.
A part holds a random share of what one study measured.
Chain of UniProt Q9UQM7 (whole entry, looked up): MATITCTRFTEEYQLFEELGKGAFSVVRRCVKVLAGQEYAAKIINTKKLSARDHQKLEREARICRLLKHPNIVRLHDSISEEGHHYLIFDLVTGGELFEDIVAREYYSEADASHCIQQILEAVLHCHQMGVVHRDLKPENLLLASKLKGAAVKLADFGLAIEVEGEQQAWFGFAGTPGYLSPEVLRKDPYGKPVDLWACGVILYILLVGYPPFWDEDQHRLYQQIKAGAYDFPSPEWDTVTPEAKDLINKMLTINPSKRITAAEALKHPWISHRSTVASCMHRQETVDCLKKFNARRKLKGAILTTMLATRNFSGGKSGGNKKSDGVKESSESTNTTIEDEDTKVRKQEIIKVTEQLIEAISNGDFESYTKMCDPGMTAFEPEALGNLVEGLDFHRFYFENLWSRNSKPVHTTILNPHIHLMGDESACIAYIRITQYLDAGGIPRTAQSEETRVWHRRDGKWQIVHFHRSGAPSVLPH
Chain of UniProt P28566 (whole entry, looked up): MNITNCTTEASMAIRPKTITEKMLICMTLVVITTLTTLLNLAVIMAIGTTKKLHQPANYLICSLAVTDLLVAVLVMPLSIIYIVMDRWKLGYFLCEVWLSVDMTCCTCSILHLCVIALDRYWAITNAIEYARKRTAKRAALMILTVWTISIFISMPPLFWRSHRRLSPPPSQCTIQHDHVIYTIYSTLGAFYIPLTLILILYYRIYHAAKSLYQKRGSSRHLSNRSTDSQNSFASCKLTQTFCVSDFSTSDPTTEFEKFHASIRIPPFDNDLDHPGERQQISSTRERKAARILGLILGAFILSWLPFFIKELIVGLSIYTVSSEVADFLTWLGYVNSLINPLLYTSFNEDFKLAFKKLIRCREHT

Series 1
Organism: Sarcocystis neurona
Read-out: parasite growth
Tested at: 10 µM
Time: 96 h
Setting: first screen
Reference: untreated
Structure (SMILES)	log2 fold change
OCCN1CCN(CCCN2c3ccccc3Sc3ccc(Cl)cc32)CC1	-4.34
FC(F)(F)c1cccc(N2CCNCC2)c1	-0.22
c1ccc2c(c1)Nc1ccccc1S2	0.23
C[C@H]1[C@H](OC(=O)CCC(=O)O)O[C@@H]2O[C@@]3(C)CC[C@H]4[C@H](C)CC[C@@H]1[C@@]24OO3	-3.67

Series 2
Target: CRBN/Zinc finger protein Helios (Homo sapiens, UniProt Q96SW2+Q9UKS7)
Chain of UniProt Q9UKS7 (whole entry, looked up): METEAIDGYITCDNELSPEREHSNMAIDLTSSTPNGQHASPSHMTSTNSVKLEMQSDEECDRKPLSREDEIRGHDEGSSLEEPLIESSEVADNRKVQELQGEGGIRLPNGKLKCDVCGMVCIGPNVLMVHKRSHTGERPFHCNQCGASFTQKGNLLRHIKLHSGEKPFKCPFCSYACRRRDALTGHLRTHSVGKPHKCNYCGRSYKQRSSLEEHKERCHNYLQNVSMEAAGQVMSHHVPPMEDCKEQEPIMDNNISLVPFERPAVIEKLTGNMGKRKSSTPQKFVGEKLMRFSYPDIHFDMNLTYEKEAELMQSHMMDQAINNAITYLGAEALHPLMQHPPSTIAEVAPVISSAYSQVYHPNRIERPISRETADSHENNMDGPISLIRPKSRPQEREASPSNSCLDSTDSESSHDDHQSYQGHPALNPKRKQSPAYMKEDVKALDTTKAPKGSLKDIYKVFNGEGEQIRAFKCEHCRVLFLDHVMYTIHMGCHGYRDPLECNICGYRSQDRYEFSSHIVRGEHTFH
Chain of UniProt Q96SW2 (whole entry, looked up): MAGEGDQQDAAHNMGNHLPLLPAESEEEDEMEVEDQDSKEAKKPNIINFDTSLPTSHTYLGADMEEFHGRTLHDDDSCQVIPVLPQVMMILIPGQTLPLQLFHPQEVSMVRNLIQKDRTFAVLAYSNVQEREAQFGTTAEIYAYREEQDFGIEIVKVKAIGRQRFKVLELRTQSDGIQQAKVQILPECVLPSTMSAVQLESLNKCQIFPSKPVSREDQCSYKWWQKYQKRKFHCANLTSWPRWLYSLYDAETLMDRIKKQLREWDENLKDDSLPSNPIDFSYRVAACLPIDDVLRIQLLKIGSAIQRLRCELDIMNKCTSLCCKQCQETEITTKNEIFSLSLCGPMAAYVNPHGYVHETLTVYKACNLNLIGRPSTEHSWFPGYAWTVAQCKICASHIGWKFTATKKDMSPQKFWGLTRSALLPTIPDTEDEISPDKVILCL
Action: degrader
Technique: HiBiT
Cell line: HEK293
Tested at: 123.5 nM
SMILES	protein remaining
O=C1CCC(N2Cc3c(ccc4c3OCC43CCN(Cc4ccccc4)CC3(F)F)C2=O)C(=O)N1 (stereo not shown)	59.9%
O=C1CCC(N2Cc3c(ccc4c3OCC43CCCN(Cc4ccccc4)CC3)C2=O)C(=O)N1 (stereo not shown)	89.4%
O=C1CCC(N2Cc3c(ccc4c3OCC43CCN(Cc4ccsc4)CC3)C2=O)C(=O)N1 (stereo not shown)	23.9%
O=C1CCC(N2Cc3c(ccc4c3OCC43CCN(CC4CCCCC4)CC3)C2=O)C(=O)N1 (stereo not shown)	47.8%

Mixed results
Tested at: 10 µM
Structure (SMILES)	target	test	inhibition
CNC(=N)NCCC[C@H](NC(=O)[C@H](CC(C)C)NC(=O)NNC(=O)[C@H](Cc1ccccc1)NC(=O)[C@H](CO)NC(=O)[C@H](CC(N)=O)NC(=O)[C@@H](Cc1ccncc1)NC(=O)[C@H](N)Cc1ccc(O)cc1)C(=O)N[C@@H](Cc1ccccc1)C(N)=O	5-hydroxytryptamine receptor 1E (HTR1E, Homo sapiens, UniProt P28566)	ligand displacement, radioligand	24.1%
C=C[C@H]1CN2CC[C@@]3(C(=O)Nc4ccccc43)[C@@H]2C[C@@H]1/C(=C\OC)C(=O)OC	Calcium/calmodulin-dependent protein kinase type II subunit alpha (CAMK2A, Homo sapiens, UniProt Q9UQM7)	enzyme activity, inhibitor	6%

Some of these lines once more (series 2):
SMILES	protein remaining
O=C1CCC(N2Cc3c(ccc4c3OCC43CCN(Cc4ccccc4)CC3(F)F)C2=O)C(=O)N1 (stereo not shown)	59.9%
